Measurements from different studies.
A part holds a random share of what one study measured. Numbers after ± are the reported error.
Sequence of UniProt P34913 (whole entry, looked up): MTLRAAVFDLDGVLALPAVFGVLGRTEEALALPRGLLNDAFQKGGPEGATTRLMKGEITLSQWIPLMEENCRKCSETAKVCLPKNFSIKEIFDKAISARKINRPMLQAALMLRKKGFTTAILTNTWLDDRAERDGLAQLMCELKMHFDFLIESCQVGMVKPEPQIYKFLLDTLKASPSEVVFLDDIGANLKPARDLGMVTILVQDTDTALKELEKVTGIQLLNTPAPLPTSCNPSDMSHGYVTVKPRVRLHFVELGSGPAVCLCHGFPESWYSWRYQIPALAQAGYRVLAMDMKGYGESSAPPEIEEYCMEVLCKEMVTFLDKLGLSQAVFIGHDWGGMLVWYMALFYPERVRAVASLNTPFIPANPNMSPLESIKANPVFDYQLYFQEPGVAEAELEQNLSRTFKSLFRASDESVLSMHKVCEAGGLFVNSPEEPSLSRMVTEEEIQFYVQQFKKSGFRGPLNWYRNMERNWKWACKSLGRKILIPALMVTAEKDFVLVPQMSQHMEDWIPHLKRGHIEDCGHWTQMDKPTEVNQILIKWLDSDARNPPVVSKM
Sequence of UniProt Q9BXF3 (whole entry, unmodified, looked up): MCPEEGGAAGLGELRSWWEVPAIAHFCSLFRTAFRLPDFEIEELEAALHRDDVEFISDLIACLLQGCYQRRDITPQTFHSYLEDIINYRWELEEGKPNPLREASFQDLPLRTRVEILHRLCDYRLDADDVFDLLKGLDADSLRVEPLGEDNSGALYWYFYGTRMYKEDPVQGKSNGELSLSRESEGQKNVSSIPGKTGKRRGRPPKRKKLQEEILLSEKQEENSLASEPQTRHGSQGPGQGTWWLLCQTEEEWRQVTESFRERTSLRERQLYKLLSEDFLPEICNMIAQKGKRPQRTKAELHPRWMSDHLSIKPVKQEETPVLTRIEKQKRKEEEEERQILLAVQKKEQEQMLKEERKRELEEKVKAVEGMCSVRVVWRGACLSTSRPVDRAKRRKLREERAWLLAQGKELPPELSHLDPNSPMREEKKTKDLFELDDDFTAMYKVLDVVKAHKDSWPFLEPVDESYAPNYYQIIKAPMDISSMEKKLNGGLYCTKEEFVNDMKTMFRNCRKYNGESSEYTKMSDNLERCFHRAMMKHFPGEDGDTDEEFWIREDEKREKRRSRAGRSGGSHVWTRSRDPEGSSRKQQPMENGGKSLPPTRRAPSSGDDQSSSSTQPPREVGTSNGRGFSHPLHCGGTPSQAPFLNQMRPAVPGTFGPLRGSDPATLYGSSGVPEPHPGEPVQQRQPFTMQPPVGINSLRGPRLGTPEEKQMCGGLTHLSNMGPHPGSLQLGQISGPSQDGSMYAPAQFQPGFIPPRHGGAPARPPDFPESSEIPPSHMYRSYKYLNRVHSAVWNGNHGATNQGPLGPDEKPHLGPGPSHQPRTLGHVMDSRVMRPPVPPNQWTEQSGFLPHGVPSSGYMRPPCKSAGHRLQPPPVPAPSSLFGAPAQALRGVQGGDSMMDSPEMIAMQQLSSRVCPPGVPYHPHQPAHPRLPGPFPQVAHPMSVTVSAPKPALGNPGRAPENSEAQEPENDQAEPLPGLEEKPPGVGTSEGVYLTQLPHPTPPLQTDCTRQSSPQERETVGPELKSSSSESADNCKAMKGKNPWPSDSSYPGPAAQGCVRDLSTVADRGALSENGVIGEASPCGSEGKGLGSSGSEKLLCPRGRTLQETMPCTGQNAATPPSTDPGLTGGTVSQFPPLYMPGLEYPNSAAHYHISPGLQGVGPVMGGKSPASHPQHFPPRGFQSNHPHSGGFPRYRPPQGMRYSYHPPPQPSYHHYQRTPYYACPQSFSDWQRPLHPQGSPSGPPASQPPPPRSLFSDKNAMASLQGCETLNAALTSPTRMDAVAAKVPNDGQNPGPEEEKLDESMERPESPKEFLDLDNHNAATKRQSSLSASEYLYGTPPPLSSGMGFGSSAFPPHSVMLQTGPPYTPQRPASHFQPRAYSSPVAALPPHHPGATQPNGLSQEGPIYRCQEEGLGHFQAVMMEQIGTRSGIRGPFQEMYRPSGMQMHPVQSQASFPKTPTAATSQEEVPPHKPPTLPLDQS

Sample 1
Compound: Cc1cc(OCc2nnc(SC3CCCC3)n2-c2cccnc2)ccc1-c1ccc(S(C)(=O)=O)cc1
cell line | GI50
SK-MEL-2 | 1700 nM
IGROV-1 | 1320 nM
NCI-H460 | 1320 nM

Single results of other studies
SMILES | tested on | assay | system | setting | measurement | value
CC[C@@H]1C(=O)N(C)c2cnc(Nc3ccc(C(=O)NC4CCN(C)CC4)cc3OC)nc2N1C1CCCC1 | CECR2 (Homo sapiens, UniProt Q9BXF3) | thermal stabilisation, thermal shift | – | 10 µM | ΔTm | 0.48 ± 0.19 °C
N#Cc1ccc(-c2csc(CNC(=O)C34CC(CN(C(=O)COCCF)C3)C4)n2)cc1 | – | – | Sprague Dawley rats male, plasma | oral, 3 mg/kg | oral bioavailability | > 100%
Cc1ccc(S(=O)(=O)Nc2c(N3CCC(NC(=O)Nc4ccc(F)c(C)c4)CC3)c(=O)c2=O)cc1 | EPHX2 (Homo sapiens, UniProt P34913) | – | – | – | IC50 | 82.7 ± 7.9 nM

A few entries again (sample 1):
cell line | GI50
NCI-H460 | 1320 nM
